Measurements collected from several papers.
Compare with care: the assays were run in different laboratories. Numbers after ± are the reported error.
Cell line: MOLT-4

SMILES	assay	test system	setting	how to read	endpoint	value
CCn1cc(-c2cc(Cn3ccnc3)cc3c2CCN([C@H](c2cc(OC)ccn2)C2CC2)C3=O)c(C(F)(F)F)n1	cell growth, inhibitor	–	120 h	–	EC50	12.3 µM
COc1cccc(C(=O)c2cc3c(-c4ccccc4)c(O)ccc3o2)c1	cell proliferation	–	72 h	–	IC50	47 ± 14 µM
O=c1ccn(Cc2cn(-c3cc4ccccc4oc3=O)nn2)c(=O)[nH]1	NCI60 single-dose screen	–	10 µM	–	growth percentage	92.1%
CCOc1ccc(-c2nc3cc(-c4nc5cc(N6CCN(C)CC6)ccc5[nH]4)ccc3[nH]2)cc1OCC	SRB	–	10 µM, 48 h	–	growth percent	9.04%
COc1cc(OC)cc(C(=O)c2cc3c(-c4ccccc4)c(OC)ccc3o2)c1	cell proliferation	–	72 h	–	IC50	> 50 µM
CCCN1CCN(c2ccc3nc(-c4ccc5nc(-c6cc(OC)ccc6OC)[nH]c5c4)[nH]c3c2)CC1	SRB	–	10 µM, 48 h	–	growth percent	77%
O=C(Nc1nnc2[nH]c(=S)[nH]c(-c3ccc(Cl)cc3)c1-2)c1ccccc1	SRB	–	10 µM, NCI60 single-dose screen	reference: untreated	cell growth	100%
Cc1cc(C)n(C(=S)[S][Au][PH](CCCCCC[PH]([Au][S]C(=S)n2nc(C)cc2C)(c2ccccc2)c2ccccc2)(c2ccccc2)c2ccccc2)n1	cell growth, NCI-60 screen	–	leukemia	–	log10 TGI	-4.92
Cc1cc(C)n(-c2nc(-c3ccc(Cl)cc3)c3c(NC(=O)c4ccccc4)nnc-3[nH]2)n1	SRB	–	10 µM, NCI60 single-dose screen	reference: untreated	cell growth	108%
CCCC(CCC)C(=O)OCc1cn(-c2c3ccccc3nc3ccccc23)nn1	NCI60 single-dose screen	–	10 µM	–	growth percentage	86.7%
CSc1nc(-c2ccc(Cl)cc2)c2c(NC(=O)c3ccccc3)nnc-2[nH]1	SRB	–	10 µM, NCI60 single-dose screen	reference: untreated	cell growth	99.1%
O=C1NC(=NCc2cccs2)S/C1=C\c1ccc2ncccc2c1	cytotoxicity, MTS	NCI60 panel	acute lymphoblastic leukaemia	–	IC50	5.2 µM
Cn1cncc1C1=CN(c2ncnc3[nH]cnc23)CCS1	–	–	leukemia	–	GI50	12.3 µM
COc1ccc2oc(C(=O)c3ccccc3)cc2c1-c1ccccc1	cell proliferation	–	72 h	–	IC50	> 50 µM
CCCN1CCN(c2ccc3[nH]c(-c4ccc5[nH]c(-c6cc(OC)c(OC)c(OC)c6)nc5c4)nc3c2)CC1	SRB	–	10 µM, 48 h	–	growth percent	62.6%
C#C[C@@]1(O)[C@@H](CO)O[C@@H](n2cc(F)c3c(N)ncnc32)[C@@H]1O	SRB	–	NCI-60 screen	–	TGI	> 100 µM
Cc1n[nH]c2nc(-c3ccc(Cl)cc3)c3c(NC(=O)c4ccccc4)nnc-3n12	SRB	–	10 µM, NCI60 single-dose screen	reference: untreated	cell growth	105%
COc1ccc(OC)c(-c2nc3ccc(-c4nc5ccc(N6CCN(C)CC6)cc5[nH]4)cc3[nH]2)c1	SRB	–	10 µM, 48 h	–	growth percent	77.7%

For quick reference, copied from above:
SMILES	assay	test system	setting	how to read	endpoint	value
COc1cc(OC)cc(C(=O)c2cc3c(-c4ccccc4)c(OC)ccc3o2)c1	cell proliferation	–	72 h	–	IC50	> 50 µM
CCCC(CCC)C(=O)OCc1cn(-c2c3ccccc3nc3ccccc23)nn1	NCI60 single-dose screen	–	10 µM	–	growth percentage	86.7%
CCCN1CCN(c2ccc3nc(-c4ccc5nc(-c6cc(OC)ccc6OC)[nH]c5c4)[nH]c3c2)CC1	SRB	–	10 µM, 48 h	–	growth percent	77%
